# Assay results gathered from unrelated publications.
# Each line is one published result; not all experiments were run side by side. ± gives the spread as reported.
# OPG122: mRNA-decapping protein OPG122 (OPG122, Vaccinia virus, UniProt P04312)
# Replicase polyprotein 1a papain-like protease: Replicase polyprotein 1a, papain-like protease (Severe acute respiratory syndrome coronavirus 2, UniProt P0DTC1)
# bglR: Beta-glucuronidase (bglR, Clostridium perfringens, UniProt Q8XP19)
SMILES,target,assay,test system,setting,IC50 [µM]
Nc1ncnc2c1ncn2C1OC(COP(=O)(O)OP(=O)(O)OP(=O)(O)O)C(O)C1O (stereo not drawn),OPG122,,,,84
Cc1ccc(N)cc1C(=O)NC1(c2ccc3c4c(cccc24)CC3)CC1,Replicase polyprotein 1a papain-like protease,cell-free assay,,,0.143
Nc1ncnc2c1ncn2C1CC(O)C(COP(=O)(O)OP(=O)(O)OP(=O)(O)O)O1 (stereo not drawn),OPG122,,,,129
CC(=O)OC/C=C/C1=CC2=C(CO1)C(=O)[C@](C)(O)[C@H](OC(=O)c1c(C)cc(O)cc1O)C2,"Neuraminidase (NA, Influenza A virus, UniProt Q6DPL2)",,influenza A virus H5N1,,29.9 ± 0.6
C1CCc2c(c(N3CCOCC3)nc3sc4c(NC5CCNCC5)nnnc4c23)C1,bglR,,,,6 ± 1
c1cn(Cc2ccc(-c3ccc4occc4c3)cc2)cn1,"Mycocyclosin synthase (cyp121, Mycobacterium tuberculosis, UniProt P9WPP7)","mycocyclosin formation, inhibitor, LC-MS/MS",,with: cYY 20 µM,23
COc1ccc(Cn2cnc3cc(C)c(C)cc32)cc1,"Enoyl-[acyl-carrier-protein] reductase [NADH] (Francisella tularensis subsp. tularensis, UniProt Q5NGQ3)",inhibitor,,,0.5
"O=C(OC1Cc2c(O)cc(O)cc2OC1c1cc(O)c(O)c(O)c1)c1cc(O)c(O)c(O)c1 (single isomer, unassigned; (-))","Nucleoprotein (Severe acute respiratory syndrome coronavirus 2, UniProt P0DTC9)","nucleoprotein-RNA binding, inhibitor, HTRF",,with: RNA 50 nM,0.68 ± 0.09
CC(C)C[C@@H]1NC(=O)[C@H](CCCNC(=N)N)NC(=O)[C@@H]2CCCN2C(=O)[C@@H]2CSSC[C@H](NC(=O)CNC(=O)[C@@H]3CCCN3C(=O)[C@H](CCCCN)NC(=O)[C@H](CC(=O)O)NC(=O)[C@@H](NC(=O)CN)C(C)C)C(=O)N[C@@H](CCCNC(=N)N)C(=O)N[C@@H](Cc3ccc(O)cc3)C(=O)N[C@@H](CC(C)C)C(=O)N[C@@H](Cc3ccccc3)C(=O)NCC(=O)NCC(=O)N[C@H]3CSSC[C@H](NC(=O)CNC1=O)C(=O)N[C@@H](CCCCN)C(=O)NCC(=O)N[C@@H](CCCCN)C(=O)NCC(=O)N[C@@H](Cc1c[nH]cn1)C(=O)N[C@@H](CC(=O)O)C(=O)N[C@@H](Cc1ccc(O)cc1)C(=O)N[C@H](C(=O)N[C@@H](C)C(=O)N[C@@H](Cc1c[nH]c4ccccc14)C(=O)N[C@@H](CC(=O)O)C(=O)NCC(=O)N[C@H](C(=O)N[C@@H](Cc1ccccc1)C(=O)N[C@@H](CO)C(=O)N[C@@H](CC(=O)O)C(=O)O)[C@@H](C)O)CSSC[C@H](NC(=O)[C@H](CC(=O)O)NC(=O)[C@H](CC(=O)O)NC(=O)[C@H](CC(=O)O)NC(=O)[C@H](CO)NC(=O)[C@H](CCCCN)NC3=O)C(=O)N2,"Sodium channel protein type 2 subunit alpha (SCN2A, Homo sapiens, UniProt Q99250)","peak sodium current, inhibitor, automated patch clamp",HEK293,"holding potential -100 mV, with: 0.1 % BSA",1.23
CSCC[C@H](NC(=O)[C@@H](NC(C)=O)C(C)C)C(=O)N1CCC[C@H]1C(=O)N[C@@H](Cc1c[nH]c2ccccc12)C(=O)N[C@@H](CC(=O)O)C(=O)N[C@@H](CCC(=O)O)C(=O)N[C@@H](Cc1c[nH]c2ccccc12)C(=O)N[C@@H](CC(C)C)C(=O)N[C@H](C(=O)N[C@@H](CCCCN)C(=O)N[C@@H](CCCNC(=N)N)C(=O)N[C@@H](CCCCN)C(=O)N1CCC[C@H]1C(=O)N[C@@H](CCC(=O)O)C(=O)N[C@@H](CC(C)C)C(=O)N1CCC[C@H]1C(N)=O)[C@@H](C)O,"Polyprotein P1234, protease (Chikungunya virus, UniProt Q8JUX6)","enzyme activity, inhibitor, FRET",,,4.6
O=c1[nH]c(=O)c2ncn(C3OC(COP(=O)(O)OP(=O)(O)OP(=O)(O)O)C(O)C3O)c2[nH]1 (stereo not drawn),OPG122,,,,> 200
CC1=CC(=C(c2cc(C)c(O)c(C(=O)O)c2)c2c(Cl)ccc(S(=O)(=O)O)c2Cl)C=C(C(=O)O)C1=O,"Ba71V-97, DNA complex (African swine fever virus, UniProt P42494)","enzyme activity, inhibitor",,,35.2 ± 1.8
CC[C@H](C)[C@H](NC(=O)[C@H](Cc1ccc(O)cc1)NC(=O)[C@H](Cc1c[nH]cn1)NC(=O)[C@@H]1CSSC[C@H](NC(=O)[C@@H]2CCCN2C(=O)[C@H](CCCNC(=N)N)NC(=O)[C@H](CC(C)C)NC(=O)[C@H](CC(=O)O)NC(=O)[C@@H]2CCCN2C(=O)[C@H](CCCCN)NC(=O)CNC(=O)CN)C(=O)N[C@@H](Cc2ccc(O)cc2)C(=O)N2CCC[C@H]2C(=O)N2CCC[C@H]2C(=O)N1)C(=O)N1CCC[C@H]1C(=O)N[C@@H](CCCNC(=N)N)C(=O)N1CCC[C@H]1C(=O)N[C@@H](CCCCN)C(=O)N1CCC[C@H]1C(=O)N[C@@H](CCCNC(=N)N)C(=O)O,"Soluble acetylcholine receptor (Aplysia californica, UniProt Q8WSF8)",cell-free assay,,,125
NCCNc1nnnc2c1sc1nc(N3CCOCC3)c3c(c12)CCCC3,bglR,,,,3.2 ± 0.6
CC[C@H](C)[C@@H]1NC(=O)[C@H](CCCNC(=N)N)NC(=O)[C@H](CO)NC(=O)[C@H](CCC(=O)O)NC(=O)[C@H](CC(=O)O)NC(=O)CNC(=O)CNC(=O)[C@H]([C@@H](C)O)NC(=O)[C@H](Cc2ccccc2)NC(=O)[C@H](CO)NC(=O)[C@H]([C@@H](C)O)NC(=O)[C@H](C)NC(=O)[C@@H]2CSSC[C@@H](C(=O)N[C@@H](Cc3ccc(O)cc3)C(=O)N[C@@H](Cc3ccccc3)C(=O)N[C@H](C(=O)N[C@H](C(=O)NCC(=O)O)[C@@H](C)O)[C@@H](C)O)NC(=O)[C@H]([C@@H](C)O)NC(=O)[C@H](CSSC[C@H](NC(=O)[C@H](CCC(=O)O)NC(=O)[C@H](CO)NC(=O)[C@H](CCCCN)NC(=O)[C@H](Cc3ccc(O)cc3)NC(=O)[C@@H]3CCCN3C(=O)[C@H](Cc3ccccc3)NC(=O)[C@H](CCCCN)NC(=O)[C@H](CCCNC(=N)N)NC(=O)[C@H](CCCCN)NC(=O)[C@H](CCCCN)NC(=O)[C@H](Cc3ccc(O)cc3)NC(=O)[C@@H]3CCCN3C(=O)[C@@H](NC(=O)[C@H](CC(=O)O)NC(=O)[C@H](CCCCN)NC(=O)[C@H](CCCCN)NC(=O)[C@@H](NC(=O)[C@@H](NC(=O)[C@@H](N)CCC(=O)O)C(C)C)[C@@H](C)CC)[C@@H](C)O)C(=O)N[C@@H](CC(C)C)C(=O)N[C@@H](CCCCN)C(=O)N[C@@H](C)C(=O)N2)NC(=O)[C@H](CCCCN)NC(=O)[C@H](Cc2ccccc2)NC(=O)[C@H](Cc2ccccc2)NC(=O)CNC(=O)[C@@H]2CCCN2C(=O)[C@H](CCCCN)NC(=O)CNC(=O)[C@H](CCC(=O)O)NC(=O)[C@H](CCC(N)=O)NC1=O,"Potassium voltage-gated channel subfamily KQT member 5 (KCNQ5, Homo sapiens, UniProt Q9NR82)","ion current, inhibitor, patch clamp",,,2.7
COc1cccc2[nH]c(C(=O)NC(CC(C)C)C(=O)NC(CC3CCCNC3=O)C(=O)COC(=O)c3c(C)cc(C)nc3C)cc12 (stereo not drawn),"Cathepsin S (CTSS, Homo sapiens, UniProt P25774)","enzyme activity, inhibitor",,"pH 5, with preincubation",0.016
CC(C)C[C@@H]1NC(=O)[C@H](CCCCN)NC(=O)[C@@H]2CSSC[C@H](N)C(=O)N[C@@H](CC(C)C)C(=O)NCC(=O)N[C@@H](Cc3ccccc3)C(=O)NCC(=O)N[C@@H](CCC(=O)O)C(=O)N[C@@H](CCCCN)C(=O)N[C@H]3CSSC[C@H](NC(=O)[C@H](C(C)C)NC1=O)C(=O)N[C@@H](CO)C(=O)N[C@@H](CCC(N)=O)C(=O)N[C@@H](Cc1c[nH]cn1)C(=O)N[C@@H](CCCCN)C(=O)N[C@@H](Cc1c[nH]c4ccccc14)C(=O)N[C@H](C(=O)N[C@@H](CCCCN)C(=O)N[C@@H](Cc1ccc(O)cc1)C(=O)O)CSSC[C@H](NC(=O)[C@H](CCCCN)NC(=O)[C@H](CC(=O)O)NC(=O)[C@H](CC(N)=O)NC3=O)C(=O)N2,"Sodium channel protein type 9 subunit alpha (SCN9A, Homo sapiens, UniProt Q15858)","ion current, inhibitor, patch clamp",,,8.89
CCC(C(=O)Nc1cccc(F)c1)n1cccc2nc(SCc3ccc(F)cc3)nc1-2 (stereo not drawn),"Replicase polyprotein 1ab, papain-like protease (rep, Middle East respiratory syndrome-related coronavirus, UniProt K9N7C7)","enzyme activity, inhibitor",,,> 100
Cc1ccc(N2CCN(C)CC2)cc1C(=O)NC1(c2ccc3c4c(cccc24)C(=O)N3)CC1,Replicase polyprotein 1a papain-like protease,"enzyme activity, inhibitor",,,0.044
Nc1nc2c(nc(Br)n2C2OC(COP(=O)(O)OP(=O)(O)OP(=O)(O)O)C(O)C2O)c(=O)[nH]1 (stereo not drawn),OPG122,,,,> 200
CC1=C(C(=O)Nc2ccc(C)cc2)C(c2ccccc2Br)NC(=S)N1 (stereo not drawn),"Angiotensin-converting enzyme 2, with SARS-CoV-2 spike RBD (ACE2, Homo sapiens, UniProt Q9BYF1)",inhibitor,,,0.0155 ± 0.00137

# Some of these lines once more:
SMILES,target,assay,test system,setting,IC50 [µM]
Cc1ccc(N2CCN(C)CC2)cc1C(=O)NC1(c2ccc3c4c(cccc24)C(=O)N3)CC1,Replicase polyprotein 1a papain-like protease,"enzyme activity, inhibitor",,,0.044
CSCC[C@H](NC(=O)[C@@H](NC(C)=O)C(C)C)C(=O)N1CCC[C@H]1C(=O)N[C@@H](Cc1c[nH]c2ccccc12)C(=O)N[C@@H](CC(=O)O)C(=O)N[C@@H](CCC(=O)O)C(=O)N[C@@H](Cc1c[nH]c2ccccc12)C(=O)N[C@@H](CC(C)C)C(=O)N[C@H](C(=O)N[C@@H](CCCCN)C(=O)N[C@@H](CCCNC(=N)N)C(=O)N[C@@H](CCCCN)C(=O)N1CCC[C@H]1C(=O)N[C@@H](CCC(=O)O)C(=O)N[C@@H](CC(C)C)C(=O)N1CCC[C@H]1C(N)=O)[C@@H](C)O,"Polyprotein P1234, protease (Chikungunya virus, UniProt Q8JUX6)","enzyme activity, inhibitor, FRET",,,4.6
